Results of several laboratories.
Parts stem from different laboratories: compare values within a part only. Substitutions count along the parent as printed.

Series 1
Target: Interferon regulatory factor 7, full length, phosphomimetic (IRF7, Homo sapiens, UniProt Q92985, residues 1-503, S471D/S472D/S475D/S476D/S477D/S483D/S484D/S487D)
Method: protein-binding microarray
Form: double-stranded DNA, one strand shown
Sample: in vitro
Concentration: 2200 nM top
Setting: 60-bp whole probe
Together with: salmon DNA 0.4 mg/ml
Baseline: random background probes
Direction: higher = stronger binding
Shared flanks, not repeated: GCCTAGCAC … GTCTTGATTCGCTTGACGCTGCTG
Construct (chain): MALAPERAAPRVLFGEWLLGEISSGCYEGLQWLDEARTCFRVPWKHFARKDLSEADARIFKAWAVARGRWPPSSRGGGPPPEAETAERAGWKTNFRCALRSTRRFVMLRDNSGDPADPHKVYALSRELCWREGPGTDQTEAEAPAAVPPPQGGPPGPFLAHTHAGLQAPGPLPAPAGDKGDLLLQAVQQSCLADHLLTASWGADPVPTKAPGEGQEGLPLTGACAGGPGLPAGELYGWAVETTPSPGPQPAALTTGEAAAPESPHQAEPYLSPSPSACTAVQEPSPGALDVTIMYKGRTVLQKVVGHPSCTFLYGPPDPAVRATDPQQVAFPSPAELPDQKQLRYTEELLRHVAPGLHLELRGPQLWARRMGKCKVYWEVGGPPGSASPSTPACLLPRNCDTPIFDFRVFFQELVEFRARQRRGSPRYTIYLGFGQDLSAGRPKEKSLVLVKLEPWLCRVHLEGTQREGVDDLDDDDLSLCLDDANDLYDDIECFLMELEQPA
Strand | fitted relative affinity [z-score]
GACGGACCGCTTCTCCTGACGTGCTAG | 0.275
ACCCGTACTGGGTCTGGATCGTGCTAG | -0.28
TTAGGTTTCCTACTGCTTTTGTGCTAG | 1.39
GACGGTTTCCTACTGCGGACGTGCTAG | 2.02
TTAGGTTTCGGTTCCGGTCAGTGCTAG | 11.1
TTAGGTTTGGGACTGGGTTAGTGCTAG | -0.0341
GACGGTATCCGGTTTCGGGACGTGCTA | 2.96
TCATTACTAAAATTTCATACTGTGCTA | 0.373
TTAGATATCAGTTACGATTAGTGCTAG | 0.427
TTAGGTTTCGGTCACGGTTAGTGCTAG | 3.57
TTAGAACTGAGTCTCGGTTAGTGCTAG | 0.0504
GACGGTTTCTTTTCCCTGACGTGCTAG | 3.82
GCTTCTATGTAGTTGATGAAGTGCTAG | 1.2
TTAGGTCTCGGACTGGGTTCGTGCTAG | -0.338
GACGAACTGATACTGGAGACGTGCTAG | -0.0731
TTAGGCTTCGACACTGGGTTAGTGCTA | -0.264
AGAGAGAGTGAGGAACAACAGTGCTAG | -0.969
TGTAGTGTGTGTCTGATTATGTGCTAG | 0.581
TCACGTATATTCCCTAGAACTGTGCTA | 1.47
ATAGGTTCCGGTTTCGGTTAGTGCTAG | 8.89
CTAGATTCCAGTTTCGATTAGTGCTAG | 6.92
GACAATTTCAGACTGGAGACGTGCTAG | 0.0534
GACGAACTGGGCACTGGAGACGTGCTA | -0.342
TCAACTCTGCCTCTAACACTGTGCTAG | 1.07
CTTTGCTCATTTTTCAGGGAGTGCTAG | 0.888

Series 2
Target: ABI1, truncated, D143A, DHFR fusion (Arabidopsis thaliana)
Method: DHFR PCA, deep sequencing
Sample: yeast
Setting: methotrexate growth selection, single substitutions
Together with: (+)-ABA 0.0091 µM
Baseline: wild-type fitted maximum
Direction: higher = stronger binding
Starting sequence: PYL1, truncated, DHFR fusion (Arabidopsis thaliana); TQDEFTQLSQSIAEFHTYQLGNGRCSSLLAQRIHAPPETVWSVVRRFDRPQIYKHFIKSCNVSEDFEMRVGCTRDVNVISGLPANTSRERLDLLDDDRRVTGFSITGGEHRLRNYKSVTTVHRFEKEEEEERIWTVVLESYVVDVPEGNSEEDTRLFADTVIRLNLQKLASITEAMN; partner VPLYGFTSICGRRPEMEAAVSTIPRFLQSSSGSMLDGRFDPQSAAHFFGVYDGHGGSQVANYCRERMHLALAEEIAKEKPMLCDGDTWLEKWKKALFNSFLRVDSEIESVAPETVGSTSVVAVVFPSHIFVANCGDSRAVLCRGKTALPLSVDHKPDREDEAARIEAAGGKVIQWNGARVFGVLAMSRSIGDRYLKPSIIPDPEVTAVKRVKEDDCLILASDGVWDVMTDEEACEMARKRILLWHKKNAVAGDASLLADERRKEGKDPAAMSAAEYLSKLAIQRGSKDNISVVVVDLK
Variant | relative binding score [%]
S27N | 44
F5E | 3.16
D75V | 32.6
R49Y | -7.17
D96L | -2.58
T17R | 3.8
S63M | 4.66
V143L | -1.59
R99C | 11.7
D95H | -4.69
V44G | -1.28
T6G | 25.5
E151C | 18.8

Series 3
Target: RING finger protein unkempt homolog, zinc fingers 1-6, GST-SBP tag (UNK, Homo sapiens, UniProt Q9C0B0, residues 30-357)
UniProt Q9C0B0, sequence (30-357, looked up): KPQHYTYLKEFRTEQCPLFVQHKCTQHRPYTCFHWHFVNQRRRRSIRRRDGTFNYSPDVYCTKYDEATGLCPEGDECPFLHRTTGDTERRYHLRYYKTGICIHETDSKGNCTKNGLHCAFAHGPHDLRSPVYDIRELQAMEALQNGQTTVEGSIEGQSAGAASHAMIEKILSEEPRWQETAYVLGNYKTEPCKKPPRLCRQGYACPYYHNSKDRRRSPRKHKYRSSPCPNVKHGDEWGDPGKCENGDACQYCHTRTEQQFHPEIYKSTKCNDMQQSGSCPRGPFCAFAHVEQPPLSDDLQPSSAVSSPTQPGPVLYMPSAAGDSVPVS
Method: RNA Bind-n-Seq
Form: RNA
Sample: in vitro
Concentration: not given
Setting: RNA with constant flanks, ends assumed
Baseline: input RNA pool
Direction: higher = stronger binding
Shared flanks, not repeated: GGGAGUUCUACAGUCCGACGAUC … CAACAGAGGAUUGAGCAUCA
Strand | bound/input enrichment [ratio]
UGAGGUUUGGCAGAGUGCUGUUGUCCAUCUUGUUGGCCUGUCUGUGAGUUUCGAAUGUGGACCGACAGAGGGAAUCUGAGUGCAGUUCUACUUGGAAAACCAUCUCUCCCCAGAGUAGGA | 0.258
AAGGCAUCUUGUACGUCGUUACAUUUAUCAUAUUGGAAGUCCCUUAAGCUCCUAGGAUUUUCCGAUGUUGAAAAUACUCCCUGCGCCCGGCAUUCAAUAUUGUAUGGUUCAUUAGGAUCU | 0.364
AUAAAAUUAGAAACUUAAAUUCCAAGCUAAAUUUCAGCUUUGACCCACCUAACUCCAGUGAACCGGUGGCAGCUCAGAAACAAGGACAGCACUGCUGCUGCCAGAGCAAGCUCACAUCCA | 6.28
CUCUUCCUCCUGCCCCUGGUUCCCUCCUCUCCUCCCACCCCCACAACCAGUACCAAUGUACACCGUAAUUGUAAUGUUUUAGACUUUACAGAAACUUUCCUGUAUUCUGUAUAUAAAAAA | 0.771
AAAUCACGAAACAAUGAAUCAGAAAAGCCCAGUUCUAAUUCAGAAGUGAGUUUACAAGCCGAUUUGAAAAGCAUUUUGGAGAAACAGUUUUCAAAAUCUUCCAGAGCUGCACACCAGGAU | 0.227
CAAAUACUAGAGAAUCUUUCCACUUCGCCUCUGGCUGAGCCACCCCACUUUGUUGAACAUAUCCGAUCUACCUUGAUGUUUUUAAAAAAACACCCAUCUCCAGCUCACACACUGUUUUCU | 0.884
GUUUUUAUCAUUUUAAGAACAUUUCAUAAACAGAAUUGUACUUUUAAAAACAAUUUUUUAUUCCGCAUUCUACCUUUUGAAAUGUACUGUCUUACUCCAAAUAAUAUCCUGAGAUCUAUC | 0.346
UACACAAAAAGUUGUGUCAUAACUUACCCAGAUAUGUUUUUCUAUCAUUUGAAACCUUUUCCGCUACUGUUUGUUUUCAUUCAACUAACAAACAUAUUCCAAUAAUAAAAGCAGUAUAUA | 0.609

Series 4
Target: BATF, bZIP domain (human)
Method: DHFR protein complementation
Sample: yeast
Setting: single substitutions, most at no-binding floor
Baseline: wild-type JUN-FOS pair
Direction: higher = stronger binding
Starting sequence: JUN, bZIP domain (human); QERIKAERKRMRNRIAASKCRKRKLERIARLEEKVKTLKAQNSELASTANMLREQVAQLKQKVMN; partner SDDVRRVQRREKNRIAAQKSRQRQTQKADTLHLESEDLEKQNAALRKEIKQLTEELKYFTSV
Variant | binding fitness
V35A | -0.358 natural log
M51P | -0.877 natural log
E33T | -0.193 natural log
L31G | -0.343 natural log
E54D | -0.0692 natural log
T37W | -0.0127 natural log
A40E | 0.0173 natural log
Q55F | -0.385 natural log
I28C | -0.124 natural log
A49M | -0.209 natural log
R30Y | -0.0129 natural log
Q55I | -0.283 natural log
E44S | -0.0785 natural log
I28Q | 0.0346 natural log
A29M | -0.301 natural log
M51S | 0.0205 natural log
K34I | -0.0879 natural log
M51A | 0.105 natural log

Series 5
Target: CCND2, cyclin fold, Cln2 fusion (human)
Method: yeast growth competition, sequencing
Sample: yeast
Setting: weak parent motif
Baseline: not given
Direction: higher = stronger binding
Starting sequence: GMNC docking peptide (human); KNAKRNLSSEFAN
Variant | normalised enrichment score
KNAKVNLSSEFAN [R5V] | -0.129
KNAKNNLSSEFAN [R5N] | 0.161
KNAKRGLSSEFAN [N6G] | 0.114
KNAKRNLSYEFAN [S9Y] | 0.312
KNAKANLSSEFAN [R5A] | 0.159
KNAKRNLSSHFAN [E10H] | -0.131
KNAKRNLSSWFAN [E10W] | 0.22
KNAKRNLSSMFAN [E10M] | -0.0383
KNAKLNLSSEFAN [R5L] | 0.00835
KNAERNLSSEFAN [K4E] | -0.107
KNAKRNLCSEFAN [S8C] | -0.268
KFAKRNLSSEFAN [N2F] | 0.387
KNAKRNLSSEFHN [A12H] | -0.00363
KNAKRNLSPEFAN [S9P] | 0.262
KNATRNLSSEFAN [K4T] | 0.142
KNAKRNLSSRFAN [E10R] | 0.267
KIAKRNLSSEFAN [N2I] | 0.602
KNWKRNLSSEFAN [A3W] | 0.381
KNAKRNLSAEFAN [S9A] | 0.725
KNAKRNLSSETAN [F11T] | 0.36
KLAKRNLSSEFAN [N2L] | 0.0238
KNAKRFLSSEFAN [N6F] | -0.142
KNAKRNLTSEFAN [S8T] | -0.184
KNYKRNLSSEFAN [A3Y] | -0.139
KNAKENLSSEFAN [R5E] | 0.251

Series 6
Target: PABPC1L2, full length, GST fusion (mouse, UniProt A0ABA7IW68)
Method: RNAcompete
Form: RNA
Sample: in vitro
Concentration: 20 nM
Setting: 7-mer, probes averaged, single round
Baseline: mean of 7-mers
Direction: higher = stronger binding
Target sequence (chain): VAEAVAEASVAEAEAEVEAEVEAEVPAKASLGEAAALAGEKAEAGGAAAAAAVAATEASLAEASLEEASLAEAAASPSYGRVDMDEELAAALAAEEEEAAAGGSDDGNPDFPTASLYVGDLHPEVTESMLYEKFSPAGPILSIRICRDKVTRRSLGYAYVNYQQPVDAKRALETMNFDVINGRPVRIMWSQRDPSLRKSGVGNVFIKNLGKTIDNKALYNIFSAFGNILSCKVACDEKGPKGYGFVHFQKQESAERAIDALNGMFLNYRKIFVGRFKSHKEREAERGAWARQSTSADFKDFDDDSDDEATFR
Strand | 7-mer Z-score
CUAGUAG | -0.195
GAAGGCG | 0.182
ACGAUAC | -0.00289
AUCUAUA | 0.0189
CAAAGAC | 0.537
AAUGUUA | 0.0642
AGCUUAC | -0.0863
AACUAGA | 0.138
UUCUCAU | -0.525
CUGGGUA | -0.0138
UAGUAAA | 0.466
GGGUCGA | 0.419
ACGGGUG | 0.0768
CCGCGGG | -0.324
UGUGGAA | 0.236
AUACUAG | -0.135

Excerpt of the above (series 5):
Variant | normalised enrichment score
KNAKRNLSSHFAN [E10H] | -0.131
KNAKRNLSSWFAN [E10W] | 0.22
KNAKRNLSSMFAN [E10M] | -0.0383
KNAKLNLSSEFAN [R5L] | 0.00835
KNAERNLSSEFAN [K4E] | -0.107
KNAKRNLCSEFAN [S8C] | -0.268
KFAKRNLSSEFAN [N2F] | 0.387
KNAKRNLSSEFHN [A12H] | -0.00363
KNAKRNLSPEFAN [S9P] | 0.262
KNATRNLSSEFAN [K4T] | 0.142
